Assay results of several laboratories.
Numbered parts are unrelated; each lists some results of a single study.

Series 1
Target: Centromere-binding protein 1, full length, His-tagged (CBF1, Saccharomyces cerevisiae, UniProt P17106, residues 1-351)
Sequence of UniProt P17106 (whole entry, looked up): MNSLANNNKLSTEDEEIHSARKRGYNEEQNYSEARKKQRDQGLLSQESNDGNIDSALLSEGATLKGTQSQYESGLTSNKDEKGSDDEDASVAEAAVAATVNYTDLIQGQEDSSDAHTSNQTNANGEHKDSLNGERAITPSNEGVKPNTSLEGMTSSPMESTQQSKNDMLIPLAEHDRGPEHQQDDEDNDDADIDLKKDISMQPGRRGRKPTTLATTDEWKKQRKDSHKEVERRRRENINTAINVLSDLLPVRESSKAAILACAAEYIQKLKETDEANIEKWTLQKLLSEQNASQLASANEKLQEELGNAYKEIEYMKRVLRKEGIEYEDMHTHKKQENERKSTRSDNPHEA
Technique: competition protein-binding microarray
Form: double-stranded DNA, one strand shown
Matrix: in vitro
Concentration: 2 µM
Setting: whole 60-bp probe, lowest competitor level
Added: Pho4 competitor, 0.05 µM
Direction: higher = stronger binding
Oligonucleotide | fluorescence intensity
CTATACTGTCATAGACCCGTGTGGAGGAGGCAGCGCGTCTTGATTCGCTTGACGCTGCTG | 63 a.u.
CCGTTCACCACTTTGCATGTGCTCTCAAGTACGGCCGTCTTGATTCGCTTGACGCTGCTG | 146 a.u.
CGGGGTTAAGTTTGGAACGTGGGTGGCTTGCAGCAGGTCTTGATTCGCTTGACGCTGCTG | 69.2 a.u.

Series 2
Target: Sal-like protein 4, full length isoform B (SALL4, Homo sapiens, UniProt Q9UJQ4-2, residues 1-616)
Technique: universal PBM
Form: double-stranded DNA, one strand shown
Matrix: in vitro
Concentration: not given
Setting: 8-mer, flanks averaged, mean of replicates
Direction: higher = stronger binding
Oligonucleotide | E-score
CGAAAACG | -0.15
CCTTGTAC | 0.0904
CCCTTCTA | -0.101
AACCGGGC | -0.275
ATGCCTAC | -0.0299

Series 3
Target: Fragile X messenger ribonucleoprotein 1, C-terminal low-complexity region (Fmr1, Mus musculus, UniProt P35922)
Technique: RNA Bind-n-Seq
Form: RNA
Matrix: in vitro
Concentration: 200 nM
Setting: whole 134-nt RNA, ends assumed
Added: 150 mM KCl
Reference: input library
Direction: higher = stronger binding
Oligonucleotide | log2 enrichment
GGGAGUUCUACAGUCCGACGAUCGUCCUGUGCUACACAUCGUAUGUACCGAAUCGGGAAAAAGGGUUUGGGUUUUUUUGGGAAAGUAUUAUGUUACGCCGUUCGGAUCUGCACUGGAAUUCUCGGGUGUCAAGG | -0.28
GGGAGUUCUACAGUCCGACGAUCCUCAAGUCCUGUGCUACACAUCGUAUGUACCGAAUCGGUGGUGGUUUUUUUGGAAAGUAUUAUGUUACGCCGUUCGGAUCUGCACUUCCAUGGAAUUCUCGGGUGUCAAGG | -0.14
GGGAGUUCUACAGUCCGACGAUCAAGUCCUGUGCUACACAUCGUAUGUACCGAAUCGGUUUUUGGUUUGGAAAAAAAGGAAAGUAUUAUGUUACGCCGUUCGGAUCUGCACUUUGGAAUUCUCGGGUGUCAAGG | -1.15
GGGAGUUCUACAGUCCGACGAUCUCCUGUGCUACACAUCGUAUGUACCGAAUCAAACCCCCAAAUUUUUAAACCCCCCCAAAAAAGUAUUAUGUUACGCCGUUCGGAUCUGCAUGGAAUUCUCGGGUGUCAAGG | -0.0495

Mixed results
Molecule | target | assay | system | setting | scale | measurement | value
PhoQ, residues 284 288 289 292 302 303 AGCYAI | PhoP, residues 12 14 15 18 19 SEGLL (Escherichia coli, UniProt P23836) | Sort-seq, refers to: YFP reporter | E. coli | PhoQ-PhoP variant library, added: 10 µM Mg2+ | reference: high Mg2+ state, higher = stronger signaling | fold induction | 12

For quick reference, copied from above (series 3):
Oligonucleotide | log2 enrichment
GGGAGUUCUACAGUCCGACGAUCGUCCUGUGCUACACAUCGUAUGUACCGAAUCGGGAAAAAGGGUUUGGGUUUUUUUGGGAAAGUAUUAUGUUACGCCGUUCGGAUCUGCACUGGAAUUCUCGGGUGUCAAGG | -0.28
